Results gathered from unrelated publications.
Each numbered part is a random draw from the data of one study; scales do not carry over between parts. Substitutions count along the parent as printed.

Study 1
Target: RNA binding protein fox-1 homolog 2, RRM domain, GST-SBP tag (RBFOX2, Homo sapiens, UniProt O43251-10, residues 100-194)
Method: RNA Bind-n-Seq
Form: RNA
Medium: in vitro
Tested at: 365 nM
Notes: natural RNA segment, single round, ends assumed
Baseline: no-protein control
Direction: higher = stronger binding
Measurement: RBNS enrichment (R)
Shared flanks, not repeated: GGGAGUUCUACAGUCCGACGAUC … UGGAAUUCUCGGGUGCCAA
CUUUAUUUUUAAGGAGCAGACUUUAAAAUGAGCCCUGACCUUUACCCAUUAUAACAGAAUUUGUCAAAAGGAGUGUUUCUUGAGGAGGUAGCUUUUUUUUACCACACUAC: 0.4
AAUGUAAUGAGUGAGCUAAUUGAUUUUUUAGACCAUAUUUGAAGAUGUGGAUGACUUACAAGAAACACAAAAGAAAGGUACUUAUAGAGUCUGGUUCUAAUAAUUGGUAC: 0.741
UACACUUCCAUGUCACCACAGCGUGGAGCAUUAGAGAAAAGCCUGGAUAGACUUUUAGUUGAUAGAGAGCCAGUUGAAAUAUCAUCAAUAGAAUUUUAGUUUAGGGAAAA: 0.84
AAGUCUUUGAGAGGGGCCUGAAGAGCCUCCGGGCUCCUGGGACAUUGAUGUAGAGUUUUUAGUGAAGUGGGCACCUUUCUAGUCCACGGCAUUUGAAGAGAGCGAGGAGA: 0.556
GUCCACUUCUGAAACUCCUGUUCCUAAUGACAAAGUGGCUAUGUGCAAUGGAUAUAAAUGUACUGUGAGUCUCUCGGUUCAGUAUUAGGUUCACUUUAAUUUAUUUAUGC: 0.719
UUACUUAUUAAGGAGAAUUGGAAAUACAUAUGCCCAUGCUUAAAUUUUAUAGCUUUAAUUUGUGUUAUUUCUUUAUUGACGGGAAGAGGUACAUCUUUUUUUCCUUACUG: 0.405
UAUCCAAUCUUUUUUUUUUGUAUUUAAAGAUCACAGGUAGAUAGAUGUAAGACAUUUGAUCCCCUGUUGACUUACAAAAUUGUAAAUGGUAAAGCAGGCUAGAGUCUUAA: 0.377
CCACACUGUCCCUGGAGAUCCCUCCAGCCUAGCCCUGCUAUAGAUCUGCUCUAGACUGUGAAAUCAGCAUGUAUGUGAAAAAUCCCAGUCCUUGACCAUGUCUCCCACUC: 3.84

Study 2
Target: Prothrombin, mature alpha-thrombin (F2, Homo sapiens, UniProt P00734)
Method: aptamer microarray, sandwich
Form: DNA with 2'F-ANA
Medium: in vitro
Tested at: 200 nM
Notes: whole 15-mer aptamer, many near background
Added: Cy3 exosite-II aptamer, 400 nM
Direction: higher = stronger binding
Measurement: mean fluorescence intensity
Sequence: GGTTGGTGTGGTTGG
2'F-ANA at 1 4 6 8 10 14 15: 45.7 a.u.
2'F-ANA at 2 3 6 7 8 9 10 12 15: 392 a.u.
2'F-ANA at 1 2 4 6 7 10 12 13 15: 54.8 a.u.
2'F-ANA at 3 4 5 6 7 9 11 13 15: 56.4 a.u.
2'F-ANA at 1 2 4 5 6 7 9 11 13 14 15: 58.9 a.u.
2'F-ANA at 5 11 13 15: 54.9 a.u.
2'F-ANA at 2 5 7 9 10: 51 a.u.
2'F-ANA at 3 4 7 8 10: 354 a.u.
2'F-ANA at 1 2 3 4 5 7 10 13 14 15: 49.9 a.u.
2'F-ANA at 2 4 7 11: 365 a.u.
2'F-ANA at 2 6 8 11 12 14 15: 158 a.u.
2'F-ANA at 2 3 5 6 8 10 11 12 14: 50.1 a.u.
2'F-ANA at 1 7 11 12 14: 75.2 a.u.
2'F-ANA at 1 2 3 4 5 6 7 8 9 10 12 14 15: 67.7 a.u.
2'F-ANA at 1 2 3 4 6 8 10 13 14: 47.5 a.u.
2'F-ANA at 4 5 6 7 8 9 10 11 15: 48.4 a.u.
2'F-ANA at 2 4 5 8 12 13 14: 48.4 a.u.
2'F-ANA at 2 3 4 5 6 7 10 15: 47.9 a.u.
2'F-ANA at 5 6 7 9 10 11 13 14: 47.8 a.u.
2'F-ANA at 5 6 7 8 9 11 13 15: 55.3 a.u.
2'F-ANA at 4 6 7 9 15: 235 a.u.
2'F-ANA at 1 6 9 10 12: 62.4 a.u.
2'F-ANA at 2 5 8 10 11 15: 47.3 a.u.
2'F-ANA at 1 2 4 7 8 9 10 11 13 15: 53.7 a.u.

Study 3
Target: CCNA1, cyclin fold, Cln2 fusion (human)
Method: yeast growth competition, sequencing
Medium: yeast
Notes: weak parent motif
Baseline: not given
Direction: higher = stronger binding
Measurement: normalised enrichment score
Starting sequence: MASTL docking peptide (human); PMIAKNLMCELDE
PMIAKNLMPELDE [C9P]: 0.196
PMIAKNGMCELDE [L7G]: -0.571
PMIATNLMCELDE [K5T]: -0.129
PMIAKNLMQELDE [C9Q]: 0.0843
PDIAKNLMCELDE [M2D]: 0.253
PMIAKNLMCKLDE [E10K]: 0.151
PMIAKNLMCNLDE [E10N]: 0.152
PMIAKNLMMELDE [C9M]: -0.108
PMIAKNLMTELDE [C9T]: -0.238
PMIAKVLMCELDE [N6V]: 0.197
PMIAKNLLCELDE [M8L]: 0.48
PMIAGNLMCELDE [K5G]: -0.15
PMIAKNLTCELDE [M8T]: -0.126
PMIAENLMCELDE [K5E]: -0.0141
PMHAKNLMCELDE [I3H]: -0.0457
PMIAQNLMCELDE [K5Q]: 0.0414

Study 4
Target: Phosphate system positive regulatory protein PHO4, full length, GST-tagged (PHO4, Saccharomyces cerevisiae, UniProt P07270, residues 1-312)
Method: competition protein-binding microarray
Form: double-stranded DNA, one strand shown
Medium: in vitro
Tested at: 2 µM
Notes: whole 60-bp probe, lowest competitor level
Added: Cbf1 competitor, 0.05 µM
Direction: higher = stronger binding
Measurement: fluorescence intensity
Shared flanks, not repeated: … GTCTTGATTCGCTTGACGCTGCTG
Target sequence (chain): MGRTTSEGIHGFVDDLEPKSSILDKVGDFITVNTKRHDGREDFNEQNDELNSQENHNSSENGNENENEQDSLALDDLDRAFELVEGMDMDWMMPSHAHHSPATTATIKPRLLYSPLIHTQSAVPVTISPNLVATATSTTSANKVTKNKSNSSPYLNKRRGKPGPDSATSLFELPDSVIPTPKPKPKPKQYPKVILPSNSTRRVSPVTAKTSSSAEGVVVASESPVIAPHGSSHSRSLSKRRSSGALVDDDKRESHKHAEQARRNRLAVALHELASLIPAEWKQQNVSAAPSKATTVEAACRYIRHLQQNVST
CTTTCCCGATCTTGTTCCGTGGGTGTAGCACATTTG: 5510 a.u.
TGCGCAACAACTTGACAAGTGGGTGTATGTCTAGAA: 5240 a.u.
TGCGCAACAACTTGAGTCGTGGGTGTATGTCTAGAA: 7200 a.u.
TGAAACAATTCGCGTCGCGTGGGACCCGAAAAGGGC: 9060 a.u.
GTCTTGTCTCATTGATCTGTGGGTGTCCCCACTTCA: 5090 a.u.
AAACATGGGAGTGGCATCTCATAATGTTGCTGCTCC: 4070 a.u.
CAACTTTTACGAATTCTCGTGCAAATTTTCAGCGAT: 6290 a.u.
AAATTACTAAGTTTTCACGTGTCGTACCCCGTATGA: 14500 a.u.
CGGGGTTAAGTTTGCTACGTGGGTGGCTTGCAGCAG: 7600 a.u.
AAAGCGGTAATTTGTTCCGTGGGTGCAGATATCTAT: 4960 a.u.
GTATGGCGCGGAAGAAACCGAGAGAGCTGCAAAATT: 3740 a.u.
CGGGGTTAAGTTTGGTCTGTGGGTGGCTTGCAGCAG: 4430 a.u.
GGCAAAATCAATCTTGACGTGCCAGATATGTTAAAA: 5850 a.u.
GTCTTGTCTCATTGAATGGTGGGTGTCCCCACTTCA: 4710 a.u.
CATACCCAACCTTTTCACGTGCTGTAAGATATTTGT: 14200 a.u.
TAAATAGTTTTTATATGTTTTTAGTAAAAGAAGAAA: 3600 a.u.
GAGCAGAGTGAAAAGCACGCAAAGAGACATAGTCGG: 5740 a.u.
AAAGCGGTAATTTGTGCAGTGGGTGCAGATATCTAT: 4630 a.u.
CGGGGTTAAGTTTGTACAGTGGGTGGCTTGCAGCAG: 3980 a.u.

Excerpt of the above (study 3):
PDIAKNLMCELDE [M2D]: 0.253
PMIAKNLMTELDE [C9T]: -0.238
PMIATNLMCELDE [K5T]: -0.129
PMIAQNLMCELDE [K5Q]: 0.0414
